Experimental data gathered from unrelated publications.
A part holds a random share of what one study measured. Positions count from the first letter of the parent shown.

Sample 1 — technique: DHFR PCA, deep sequencing; sample: yeast; added: (+)-ABA 4.8 µM; relative to: wild-type fitted maximum; reading: higher = stronger binding; endpoint: relative binding score
Target: ABI1, truncated, D143A, DHFR fusion (Arabidopsis thaliana)
Notes: methotrexate growth selection, single substitutions
Parent: PYL1, truncated, DHFR fusion (Arabidopsis thaliana); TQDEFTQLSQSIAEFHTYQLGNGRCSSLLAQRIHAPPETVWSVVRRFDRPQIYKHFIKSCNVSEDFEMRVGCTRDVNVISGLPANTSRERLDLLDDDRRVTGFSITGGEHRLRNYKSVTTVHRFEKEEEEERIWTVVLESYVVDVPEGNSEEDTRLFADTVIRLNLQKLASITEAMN
Substitution = L164E; result = 8.27%
Substitution = V44F; result = -14%
Substitution = K116Q; result = 59%
Substitution = V62Y; result = 17.1%
Substitution = D75E; result = 84.2%
Substitution = G21I; result = 64.5%
Substitution = E130H; result = 78.6%
Substitution = T120A; result = 2.13%
Substitution = A35L; result = -3.52%
Substitution = G108H; result = -9.3%
Substitution = L28K; result = 10%
Substitution = L169H; result = 4.91%
Substitution = N85D; result = 65.6%
Substitution = L8Y; result = 72.3%
Substitution = R132V; result = 76.2%
Substitution = E125C; result = 85.4%
Substitution = H55K; result = 82.4%
Substitution = H122W; result = -0.0739%
Substitution = P146F; result = -6.97%
Substitution = L156W; result = 49.9%
Substitution = A35G; result = 11.6%
Substitution = A175L; result = 60.9%
Substitution = G102D; result = -7.01%
Substitution = P37C; result = 40.9%
Substitution = L91Y; result = 0.323%

Sample 2 — technique: protein-binding microarray; molecule type: double-stranded DNA, one strand shown; sample: in vitro; concentration: 940 nM top; notes: 60-bp whole probe; added: salmon DNA 0.4 mg/ml; relative to: random background probes; reading: higher = stronger binding; endpoint: fitted relative affinity; constant ends, left off below: GCCTAGCAC … GTCTTGATTCGCTTGACGCTGCTG
Target: Interferon regulatory factor 5, full length, phosphomimetic (IRF5, Homo sapiens, UniProt Q13568-2, residues 1-514, S451D/S453D/S456D/S462D)
Strand = TTAGAACTGAGTTTCGCTTAGTGCTAG; result = 4.67 z-score
Strand = TTAGGACTGGGTCTGGGTTAGTGCTAG; result = -0.53 z-score
Strand = TCAAAGCAAAAATGATTACTGTGCTAG; result = 0.0361 z-score
Strand = TTGGATCTCAGACTGGATTAGTGCTAG; result = -0.581 z-score
Strand = CTGCATTACAGCTATTTTTAGGTGCTA; result = 0.443 z-score
Strand = GACGGACTGGACTTTCGTGACGTGCTA; result = -0.146 z-score
Strand = ATAGGTATCGACACTGGGTTAGTGCTA; result = 4.05 z-score
Strand = TCACATTTTCATTTTGTACTGTGCTAG; result = 1.36 z-score
Strand = ACCCTCATTCTACTATCGATGTGCTAG; result = 1.77 z-score
Strand = GACGGACTGGGTCTCAGGACGTGCTAG; result = -0.615 z-score
Strand = GACGAACAGGGGTATCGAGACGTGCTA; result = 0.68 z-score
Strand = TTAGTACTGGGGACTGGATTAGTGCTA; result = 0.309 z-score
Strand = GGAAATTCCAAGTTCATGGGGTGCTAG; result = -0.115 z-score
Strand = CTTTAACTCATTCTCCACTTGTGCTAG; result = 1.23 z-score
Strand = TGTTGGTAATTTTGCTATTTGTGCTAG; result = -0.135 z-score
Strand = TTAGGTATCGGATTGGGTTAGTGCTAG; result = 4.7 z-score
Strand = GACGGTTTCGGTATCGGGTCGTGCTAG; result = 15.5 z-score
Strand = GACCATATCGGGTTTCGAGACGTGCTA; result = 1.63 z-score
Strand = GGCTGTTTGATCTTGATCCTGTGCTAG; result = -0.305 z-score
Strand = GACGGTTTAGACACTGGGGACGTGCTA; result = 0.344 z-score
Strand = TTAGGTAGCGGGACTGGGTTAGTGCTA; result = -0.122 z-score
Strand = TTACATATCAGTTTCGATTAGTGCTAG; result = 8.54 z-score
Strand = GACGGTTTCGACTTTCAGGACGTGCTA; result = 7.16 z-score

Sample 3 — technique: RNA Bind-n-Seq; molecule type: RNA; sample: in vitro; concentration: 365 nM; relative to: no-protein control; reading: higher = stronger binding; endpoint: RBNS enrichment (R)
Target: RNA binding protein fox-1 homolog 2, RRM domain, GST-SBP tag (RBFOX2, Homo sapiens, UniProt O43251-10, residues 100-194)
Notes: natural RNA segment, single round, ends assumed
Constant ends, left off below: GGGAGUUCUACAGUCCGACGAUC … UGGAAUUCUCGGGUGCCAA
Target sequence (chain): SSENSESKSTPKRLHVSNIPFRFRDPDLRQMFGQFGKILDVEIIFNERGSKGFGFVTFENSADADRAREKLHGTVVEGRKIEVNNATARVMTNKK
Strand = GUGUCCUGGCCAGCCCCCAAAUGGCAUUCUAGUGCACAAAUCAUAGGAUGAGAGUUAUACUCCUGUUGUCAAGGGAGUAUUGUGUGGUAUGUUCGGGGCAUAUUGAACAA; result = 1.52
Strand = CCUUCUUCUGAUUCCUUUAAGCUCUCCCACCCUUGUGGACUUGGUAGUUAAGAGGUUCCACAGAGUAUUUUCCUUUCUGCUCCCAGUACCUCUCAAACGAUCUUUAGAUA; result = 0.404
Strand = GAAGUCUCUAAUAUAUCAUUUGUCUUUUUUCCAGUGAGGUAAAAUAAGGCAUAAAUGCAGGUAAUUAUUCCCAGCUGACCUAAAGUCAAUAAAACAUUCUGUUUAAGUGU; result = 0.332
Strand = GGCUGCAUGGAUUCUCACAUCAGAGUUCUCUGGCCCUAGAAAGGCUUAGAAAAGGCGUAAGGGAACUCAUAAAGGCUAGCAGCAUGCGGUAUUUUAACUUUCUGCCUCGG; result = 8.57
Strand = GGGAUCCUUAGGCUCAGCUGUCUGUCUAAUCCCAGAGCUAAGCCCUUUCUGCUUCGGGCAGCCUGGACUCCAGCCCUGAGUAUAGAGGCGGUGUGGAUGGCUGGCCCUCA; result = 0.553
Strand = UGCCUGCCAGCCAGCAGCCCCUCAGGAAUGCUUCUAUAAUAGAUCCAGUAAUGAAAGCAGCACCAUAUCCUAAUCUAAUGUCAGCUUCGAGAAUGAAGACUGCAGUCAGG; result = 0.506
Strand = UGCACACAGUGGAGCUUCGGGGGAACCAGCUGGAAAGCACCCUGGGAAUCAAUCUUCCUAAGCUGAAGAACCUCUACCUGGAGAUCAAAGACGCUGGCCUUCAGACCUGA; result = 0.37
Strand = UAAAGAUGCUUUAUAUGUAGAAAUUGUUUCAAAUCAUACUCUAACCCUUAGUGAGGGCAAAGUGUAGUUGGUAGAAGAAAUUGCUAAAUACCUAUCUAAUGUGCUAUGUU; result = 0.776
Strand = UAAAGUCCUCACCCCUGCAUUUGAGAAAUAUUUUAUUAUUUUUAUUUUAAGGCAAAACAGUGUUUACUGUGAUGGGCAGAACAGCCUUUUGUAUCUAGGAGUCCAUUUGA; result = 0.337
Strand = GUAAGAAAUUGCCGUUUUUACCCUGCCCUGGCUGGCAUGUGAGAAGCCAUGGAAGGUUGUGGUUGUAAAUGAGUUGUCUAAAGGGGUGCAGAGGCCUGAGGUUUCUAAAA; result = 27.8
Strand = UUGAAAACCCAUGCUGUGAACUGUUUUACAAACUUACAGAGAUAAAUGCAUUUGAUUAUCCUGAUUUACCAGUUGUGAGAGGCAAGAAAUUUGUUGAGUCUGUAUAUAAA; result = 2.33
Strand = CAAAGUUGGAUGGGCAGGUGCAGACGAGGCCCAGCCUUCAUCCUGCUUUCCCUCGCAAGCCCUUCUAUAGCUCCCAGCCCACGGGAGAGGCCAUGAGGAGCGCGAGGUCG; result = 0.185

Sample 4 — technique: universal PBM; molecule type: double-stranded DNA, one strand shown; sample: in vitro; concentration: not given; reading: higher = stronger binding; endpoint: E-score
Target: Sal-like protein 4, full length isoform B (SALL4, Homo sapiens, UniProt Q9UJQ4-2, residues 1-616)
Notes: 8-mer, flanks averaged, mean of replicates
Strand = GGTTCACA; result = 0.0407
Strand = ACCGTGCC; result = -0.147
Strand = ACATTAGG; result = 0.168
Strand = GACTGTCC; result = -0.162
Strand = CCGGGTGA; result = -0.264
Strand = AAGCGGGT; result = -0.262
Strand = ATCCCTTG; result = -0.0853
Strand = GCGCATAA; result = 0.165
Strand = ACGTTCTA; result = 0.0447
Strand = AGCGAGTC; result = -0.178
Strand = GACTTCGC; result = -0.157
Strand = CACATCGA; result = 0.0237
Strand = CCGGCACC; result = -0.214
Strand = CAGCTTAC; result = 0.0129
Strand = CATGCGTA; result = 0.156
Strand = CCGAGGAC; result = -0.19
Strand = ACTATCCT; result = 0.143
Strand = GCTACAAC; result = -0.102
Strand = ACAACAGT; result = -0.0524
Strand = ATCGTTTC; result = 0.107
Strand = TCGAATCA; result = 0.0108
Strand = AATCGCAA; result = -0.00452

Sample 5 — technique: protein binding microarray; molecule type: double-stranded DNA, one strand shown; sample: in vitro; concentration: not given; relative to: not given; reading: higher = stronger binding; endpoint: E-score
Target: Histone acetyltransferase KAT6A, winged helix 2, GST fusion (KAT6A, Homo sapiens, UniProt Q92794, residues 85-181)
Notes: 8-mer, flanks averaged, mean of 2 arrays, mostly near background
Residues (chain): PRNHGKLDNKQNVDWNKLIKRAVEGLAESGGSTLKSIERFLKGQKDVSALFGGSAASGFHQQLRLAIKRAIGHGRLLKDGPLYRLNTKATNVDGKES
Strand = CAGTCAGA; result = -0.0591
Strand = CACATCTA; result = -0.0998
Strand = AGACCTCT; result = -0.058
Strand = CAAATAAG; result = -0.1
Strand = ACTGGACC; result = 0.0479
Strand = ACATATCC; result = -0.0595
Strand = CGGGGCTA; result = 0.0479
Strand = AGGCACAC; result = -0.0314
Strand = CTGCGGGC; result = 0.174
Strand = CCCGCGGC; result = 0.189
Strand = AAGAGCGG; result = 0.076
Strand = AGCGGATC; result = 0.129
Strand = GTTTTCTA; result = 0.169
Strand = AACTTACT; result = -0.209
Strand = AGCACTTA; result = -0.0452
Strand = CCGTGTTA; result = -0.0271
Strand = CACGCCCG; result = 0.123
Strand = GCAACTGC; result = 0.23
Strand = GTCTTCTA; result = -0.115
